Experimental data collected from several papers.
Compare with care: the assays were run in different laboratories.
Organism: Candida albicans

The MIC of `O=C(COP(=O)(O)O)C(O)C(O)C(O)COP(=O)(O)O` (stereo not drawn) is reported as > 128 µg/mL (microbial growth, broth dilution; SC5314; 24 h).
With `CC[C@H]1OC(=O)[C@H](C)[C@@H](OC(=O)Cc2cccc([N+](=O)[O-])c2)[C@H](C)[C@@H](O[C@@H]2O[C@H](C)C[C@H](N(C)C)[C@H]2O)[C@](C)(OC)C[C@@H](C)C(=O)[C@H](C)[C@@H](O)[C@]1(C)O` the MIC was > 32 µg/mL (microbial growth; ATCC90028).
`N=C(N)NCCC[C@@H]1NC(=O)[C@H](CCCNC(=N)N)NC(=O)[C@H](CCCNC(=N)N)NC(=O)[C@@H](CCCNC(=N)N)NC(=O)[C@H](Cc2ccc3ccccc3c2)NC(=O)[C@H](Cc2ccc3ccccc3c2)NC(=O)[C@H](Cc2ccc3ccccc3c2)NC1=O` has an MIC of 16 µg/mL (SC5314).
The MIC of `CC[C@H]1OC(=O)[C@H](C)[C@@H](OC(=O)Cc2ccc3c(c2)OCO3)[C@H](C)[C@@H](O[C@@H]2O[C@H](C)C[C@H](N(C)C)[C@H]2O)[C@](C)(OC)C[C@@H](C)C(=O)[C@H](C)[C@@H](O)[C@]1(C)O` is reported as > 32 µg/mL (microbial growth; ATCC90028).
For `CCc1cnn2c(NCc3ccc[n+]([O-])c3)cc(N3CCCCC3CCO)nc12` (stereo not drawn), the MIC was > 128 µg/mL (microbial growth, broth dilution; SC5314).
`COc1ccc(/N=N/C(=S)N2CCCC2)cc1` has an MIC of > 50 µM (microbial growth, broth dilution; ATCC10231; 24 h).
With `NCCOCCOCCNC(=O)Cc1ccc(Nc2nc(NCc3ccc(F)cc3)nc(NCC3CCCCC3)n2)cc1` the MIC was 1 µg/mL (microbial growth, broth dilution; SC5314).
`CC[C@H]1OC(=O)[C@H](C)[C@@H](OC(=O)Cc2ccc(C(F)(F)F)cc2)[C@H](C)[C@@H](O[C@@H]2O[C@H](C)C[C@H](N(C)C)[C@H]2O)[C@](C)(OC)C[C@@H](C)C(=O)[C@H](C)[C@@H](O)[C@]1(C)O` gave an MIC of > 8 µg/mL (microbial growth; ATCC90028).
For `COc1ccc(/N=N/C(=S)N2CCOCC2)cc1`, the MIC was > 50 µM (microbial growth, broth dilution; ATCC10231; 24 h).
`CC[C@H]1OC(=O)[C@H](C)[C@@H](OC(=O)Cc2c(F)cc([N+](=O)[O-])cc2F)[C@H](C)[C@@H](O[C@@H]2O[C@H](C)C[C@H](N(C)C)[C@H]2O)[C@](C)(OC)C[C@@H](C)C(=O)[C@H](C)[C@@H](O)[C@]1(C)O` has an MIC of > 32 µg/mL (microbial growth; ATCC90028).
With `O=C(O[C@@H]1Cc2c(O)cc(O)cc2O[C@@H]1c1cc(O)c(O)c(O)c1)c1cc(O)c(O)c(O)c1` the MIC was 16 µg/mL (microbial growth, broth dilution; SC5314; 24 h).
`COC1=CC(c2ccc[nH]2)=NC1=CNC1CCCCCC1.Cl` has an MIC of 16 µg/mL (broth microdilution; ATCC 90028; 24 h).
`CC[C@H]1OC(=O)[C@H](C)[C@@H](OC(=O)Cc2cccc3ccccc23)[C@H](C)[C@@H](O[C@@H]2O[C@H](C)C[C@H](N(C)C)[C@H]2O)[C@](C)(OC)C[C@@H](C)C(=O)[C@H](C)[C@@H](O)[C@]1(C)O` gave an MIC of > 32 µg/mL (microbial growth; ATCC90028).
For `O=c1c(O)c(-c2ccc(O)c(O)c2)oc2cc(O)c(O)c(O)c12`, the MIC was 16 µg/mL (microbial growth, broth dilution; SC5314).
`N=C(N)NCCC[C@@H]1NC(=O)[C@H](CCCNC(=N)N)NC(=O)[C@@H](CCCNC(=N)N)NC(=O)[C@@H](CCCNC(=N)N)NC(=O)[C@@H](C(c2ccccc2)c2ccccc2)NC(=O)[C@H](Cc2c[nH]c3ccccc23)NC(=O)[C@@H](C(c2ccccc2)c2ccccc2)NC1=O` gave an MIC of 16 µg/mL (fungal growth).
`CC[C@H]1OC(=O)[C@H](C)[C@@H](OC(=O)Cc2ccccc2Cl)[C@H](C)[C@@H](O[C@@H]2O[C@H](C)C[C@H](N(C)C)[C@H]2O)[C@](C)(OC)C[C@@H](C)C(=O)[C@H](C)[C@@H](O)[C@]1(C)O` gave an MIC of > 32 µg/mL (microbial growth; ATCC90028).
`CCCC(C)Oc1cccc(NC(=O)c2cccnc2)c1` (stereo not drawn) has an MIC of 4 µg/mL.
With `N=C(N)NCCC[C@@H]1NC(=O)[C@@H](CCCNC(=N)N)NC(=O)[C@H](CCCNC(=N)N)NC(=O)[C@@H](C(c2ccccc2)c2ccccc2)NC(=O)[C@@H](C(c2ccccc2)c2ccccc2)NC(=O)[C@@H](C(c2ccccc2)c2ccccc2)NC(=O)[C@@H](CCCNC(=N)N)NC1=O` the MIC was 8 µg/mL (fungal growth).
